Experimental data gathered from unrelated publications.
Each numbered part is a random draw from the data of one study; scales do not carry over between parts. Several values in a cell are separate wells, animals, samples, runs or records.
Sequence of UniProt Q9UK32 (whole entry, looked up): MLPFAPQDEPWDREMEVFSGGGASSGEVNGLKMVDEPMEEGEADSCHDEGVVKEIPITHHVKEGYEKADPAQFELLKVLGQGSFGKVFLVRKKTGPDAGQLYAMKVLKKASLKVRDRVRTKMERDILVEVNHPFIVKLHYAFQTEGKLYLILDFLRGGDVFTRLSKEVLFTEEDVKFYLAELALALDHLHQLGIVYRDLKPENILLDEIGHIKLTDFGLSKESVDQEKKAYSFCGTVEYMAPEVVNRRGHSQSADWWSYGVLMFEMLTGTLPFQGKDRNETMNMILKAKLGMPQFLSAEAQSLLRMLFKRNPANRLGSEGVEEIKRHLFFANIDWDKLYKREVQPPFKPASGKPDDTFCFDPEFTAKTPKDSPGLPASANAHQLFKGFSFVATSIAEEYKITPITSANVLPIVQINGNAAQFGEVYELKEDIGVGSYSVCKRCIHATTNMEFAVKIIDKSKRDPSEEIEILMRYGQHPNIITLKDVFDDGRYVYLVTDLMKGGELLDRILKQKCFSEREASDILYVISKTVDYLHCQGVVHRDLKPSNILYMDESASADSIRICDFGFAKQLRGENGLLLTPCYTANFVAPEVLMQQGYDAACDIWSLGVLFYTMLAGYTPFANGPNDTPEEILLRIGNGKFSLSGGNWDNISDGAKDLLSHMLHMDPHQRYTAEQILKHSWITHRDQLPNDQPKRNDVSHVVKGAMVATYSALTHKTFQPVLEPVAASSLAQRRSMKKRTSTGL
Sequence of UniProt O43781 (whole entry, looked up): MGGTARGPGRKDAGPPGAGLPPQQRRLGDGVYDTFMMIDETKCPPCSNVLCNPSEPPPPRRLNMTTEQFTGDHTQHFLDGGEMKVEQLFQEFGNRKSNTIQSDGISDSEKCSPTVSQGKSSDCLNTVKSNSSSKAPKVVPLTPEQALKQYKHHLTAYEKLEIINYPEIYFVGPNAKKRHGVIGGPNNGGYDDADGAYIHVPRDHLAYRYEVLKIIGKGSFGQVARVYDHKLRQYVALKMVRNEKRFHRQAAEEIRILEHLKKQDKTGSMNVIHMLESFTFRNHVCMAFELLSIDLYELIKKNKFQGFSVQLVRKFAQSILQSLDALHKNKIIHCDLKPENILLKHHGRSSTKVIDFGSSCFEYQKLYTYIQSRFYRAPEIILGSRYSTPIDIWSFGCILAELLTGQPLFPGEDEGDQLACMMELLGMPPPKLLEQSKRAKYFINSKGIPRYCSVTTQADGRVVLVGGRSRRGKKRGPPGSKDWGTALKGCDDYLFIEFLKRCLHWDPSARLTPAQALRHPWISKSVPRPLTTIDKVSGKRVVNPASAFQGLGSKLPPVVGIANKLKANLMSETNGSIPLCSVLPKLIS
Sequence of UniProt Q16816 (whole entry, looked up): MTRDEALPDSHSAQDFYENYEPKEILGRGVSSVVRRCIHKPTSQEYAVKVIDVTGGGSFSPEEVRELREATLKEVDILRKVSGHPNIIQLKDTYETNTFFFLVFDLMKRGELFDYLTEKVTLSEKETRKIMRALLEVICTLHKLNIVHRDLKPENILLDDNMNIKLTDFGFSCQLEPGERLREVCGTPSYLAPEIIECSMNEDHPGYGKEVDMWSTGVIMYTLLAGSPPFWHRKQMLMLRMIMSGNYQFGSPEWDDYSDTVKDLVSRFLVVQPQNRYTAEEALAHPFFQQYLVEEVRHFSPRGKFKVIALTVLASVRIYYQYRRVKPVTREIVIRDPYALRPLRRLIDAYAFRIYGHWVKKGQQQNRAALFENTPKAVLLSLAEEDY
Sequence of UniProt Q9BYP7 (whole entry, looked up): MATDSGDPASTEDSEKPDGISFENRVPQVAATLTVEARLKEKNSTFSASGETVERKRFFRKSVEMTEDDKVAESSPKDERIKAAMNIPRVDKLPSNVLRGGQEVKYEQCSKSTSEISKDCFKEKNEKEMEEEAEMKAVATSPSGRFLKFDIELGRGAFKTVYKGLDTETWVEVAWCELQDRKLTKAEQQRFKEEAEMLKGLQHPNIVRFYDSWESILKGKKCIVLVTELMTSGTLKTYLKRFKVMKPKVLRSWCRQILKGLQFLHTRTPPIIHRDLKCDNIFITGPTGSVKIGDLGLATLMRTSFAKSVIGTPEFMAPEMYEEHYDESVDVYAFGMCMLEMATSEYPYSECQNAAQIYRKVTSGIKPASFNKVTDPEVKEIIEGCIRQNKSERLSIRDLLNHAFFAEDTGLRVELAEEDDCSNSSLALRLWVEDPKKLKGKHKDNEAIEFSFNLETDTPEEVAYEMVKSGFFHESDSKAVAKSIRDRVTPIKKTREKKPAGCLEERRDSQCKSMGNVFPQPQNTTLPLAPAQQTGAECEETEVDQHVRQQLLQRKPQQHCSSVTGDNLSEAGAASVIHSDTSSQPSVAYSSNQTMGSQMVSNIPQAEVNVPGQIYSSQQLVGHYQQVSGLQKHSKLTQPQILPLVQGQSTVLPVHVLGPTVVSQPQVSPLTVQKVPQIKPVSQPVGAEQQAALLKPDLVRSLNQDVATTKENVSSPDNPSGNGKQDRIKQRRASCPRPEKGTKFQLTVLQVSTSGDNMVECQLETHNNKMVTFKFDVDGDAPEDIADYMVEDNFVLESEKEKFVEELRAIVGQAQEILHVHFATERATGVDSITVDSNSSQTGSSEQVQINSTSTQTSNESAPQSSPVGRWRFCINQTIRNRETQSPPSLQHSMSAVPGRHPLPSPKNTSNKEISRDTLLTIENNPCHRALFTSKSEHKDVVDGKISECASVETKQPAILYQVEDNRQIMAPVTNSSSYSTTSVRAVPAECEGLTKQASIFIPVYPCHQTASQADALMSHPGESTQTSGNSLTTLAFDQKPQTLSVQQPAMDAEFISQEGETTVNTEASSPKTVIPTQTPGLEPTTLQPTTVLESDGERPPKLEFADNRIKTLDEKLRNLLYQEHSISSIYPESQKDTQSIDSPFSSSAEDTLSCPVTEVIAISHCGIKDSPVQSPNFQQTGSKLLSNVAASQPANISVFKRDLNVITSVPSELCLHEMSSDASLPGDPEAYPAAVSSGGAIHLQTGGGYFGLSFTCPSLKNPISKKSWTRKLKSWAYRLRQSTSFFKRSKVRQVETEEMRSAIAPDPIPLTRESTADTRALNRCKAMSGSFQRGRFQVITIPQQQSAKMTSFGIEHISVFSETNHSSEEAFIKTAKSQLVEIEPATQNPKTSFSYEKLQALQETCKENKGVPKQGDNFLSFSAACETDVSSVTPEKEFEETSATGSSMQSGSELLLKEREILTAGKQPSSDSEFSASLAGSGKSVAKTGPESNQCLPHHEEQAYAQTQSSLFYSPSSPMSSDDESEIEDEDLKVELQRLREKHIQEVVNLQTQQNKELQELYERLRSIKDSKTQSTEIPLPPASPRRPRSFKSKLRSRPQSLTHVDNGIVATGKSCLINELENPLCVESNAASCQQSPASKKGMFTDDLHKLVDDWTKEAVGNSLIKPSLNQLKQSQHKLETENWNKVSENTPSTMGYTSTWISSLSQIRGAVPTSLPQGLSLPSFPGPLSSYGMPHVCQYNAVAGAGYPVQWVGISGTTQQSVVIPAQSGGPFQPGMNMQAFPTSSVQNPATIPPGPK
Sequence of UniProt Q8NE63 (whole entry, looked up): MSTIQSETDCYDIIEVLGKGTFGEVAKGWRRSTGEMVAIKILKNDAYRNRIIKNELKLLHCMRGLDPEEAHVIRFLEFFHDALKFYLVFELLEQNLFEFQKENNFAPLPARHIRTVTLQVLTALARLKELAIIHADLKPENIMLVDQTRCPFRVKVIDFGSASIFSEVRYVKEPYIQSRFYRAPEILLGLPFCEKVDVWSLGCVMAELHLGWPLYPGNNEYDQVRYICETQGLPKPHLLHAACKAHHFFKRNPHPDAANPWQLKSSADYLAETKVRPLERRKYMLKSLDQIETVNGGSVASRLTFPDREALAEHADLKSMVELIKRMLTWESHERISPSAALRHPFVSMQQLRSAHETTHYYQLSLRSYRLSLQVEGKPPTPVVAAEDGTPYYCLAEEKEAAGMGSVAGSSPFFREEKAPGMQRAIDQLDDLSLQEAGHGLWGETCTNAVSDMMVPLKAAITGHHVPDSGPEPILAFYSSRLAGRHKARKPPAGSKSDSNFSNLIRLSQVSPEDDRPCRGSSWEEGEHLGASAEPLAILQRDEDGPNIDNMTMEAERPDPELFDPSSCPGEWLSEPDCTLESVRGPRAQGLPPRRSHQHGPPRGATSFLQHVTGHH
Sequence of UniProt P06493 (whole entry, looked up): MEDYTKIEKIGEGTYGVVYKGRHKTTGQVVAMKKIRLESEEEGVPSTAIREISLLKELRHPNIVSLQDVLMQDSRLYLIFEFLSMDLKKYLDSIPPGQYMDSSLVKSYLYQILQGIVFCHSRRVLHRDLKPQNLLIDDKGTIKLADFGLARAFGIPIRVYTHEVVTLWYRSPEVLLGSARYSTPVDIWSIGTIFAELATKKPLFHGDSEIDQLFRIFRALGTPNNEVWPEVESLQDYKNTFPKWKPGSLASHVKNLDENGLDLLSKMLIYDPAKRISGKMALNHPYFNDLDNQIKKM

Block 1
SMILES: c1ccc(-c2cnc(Nc3ccc(OCCN4CCCC4)cc3)s2)cc1
Read-out: enzyme activity
Mode: inhibitor
Tested at: 0.5 µM
Relative to: control
| target | remaining activity [%] |
| --- | --- |
| STK16 (Homo sapiens, UniProt O75716) | 92 |
| MAP4K4 (Homo sapiens, UniProt O95819) | 35.5 |
| DYRK3 (Homo sapiens, UniProt O43781) | 106 |
| WNK3 (Homo sapiens, UniProt Q9BYP7) | 99 |
| STK17A (Homo sapiens, UniProt Q9UEE5) | 66.2 |
| RPS6KA6 (Homo sapiens, UniProt Q9UK32) | 94.5 |
| AXL (Homo sapiens, UniProt P30530) | 97.1 |
| MAPKAPK3 (Homo sapiens, UniProt Q16644) | 97.6 |
| TSSK2 (Homo sapiens, UniProt Q96PF2) | 89 |
| PDPK1 (Homo sapiens, UniProt O15530) | 84.9 |
| Cyclin-dependent kinase 4, with cyclin D3 (CDK4, Homo sapiens, UniProt P11802) | 84.9 |
| PHKG1 (Homo sapiens, UniProt Q16816) | 45.5 |
| CAMK2B (Homo sapiens, UniProt Q13554) | 84.2 |
| HIPK4 (Homo sapiens, UniProt Q8NE63) | 98.5 |
| EPHB4 (Homo sapiens, UniProt P54760) | 91.9 |
| RPS6KA5 (Homo sapiens, UniProt O75582) | 104 |
| BLK (Homo sapiens, UniProt P51451) | 92 |
| EPHB1 (Homo sapiens, UniProt P54762) | 95.4 |
| HIPK2 (Homo sapiens, UniProt Q9H2X6) | 97.5 |
| EPHA4 (Homo sapiens, UniProt P54764) | 101 |
| Cyclin-dependent kinase 6, with cyclin D3 (CDK6, Homo sapiens, UniProt Q00534) | 20.1 |
| Cyclin-dependent kinase 1, with cyclin B (CDK1, Homo sapiens, UniProt P06493) | 85.1 |

Block 2
Target: PABPC1L2, full length, GST fusion (mouse, UniProt A0ABA7IW68)
Technique: RNAcompete
Molecule type: RNA
Medium: in vitro
Tested at: 20 nM
Setting: 7-mer, probes averaged, single round
Relative to: mean of 7-mers
Reading: higher = stronger binding
| Strand | 7-mer Z-score |
| --- | --- |
| GGGCAAC | 0.363 |
| UGCAGCG | -0.211 |
| CCAAUGU | -0.237 |
| CAGUCGU | -0.458 |
| CGUGCGC | -0.28 |
| GACCCCG | -0.273 |
| GUUAAAC | 0.0642 |
| UCUCAGU | -0.315 |

Block 3
Target: RING finger protein unkempt homolog, zinc fingers 1-6, GST-SBP tag (UNK, Homo sapiens, UniProt Q9C0B0, residues 30-357)
Sequence of UniProt Q9C0B0 (30-357, looked up): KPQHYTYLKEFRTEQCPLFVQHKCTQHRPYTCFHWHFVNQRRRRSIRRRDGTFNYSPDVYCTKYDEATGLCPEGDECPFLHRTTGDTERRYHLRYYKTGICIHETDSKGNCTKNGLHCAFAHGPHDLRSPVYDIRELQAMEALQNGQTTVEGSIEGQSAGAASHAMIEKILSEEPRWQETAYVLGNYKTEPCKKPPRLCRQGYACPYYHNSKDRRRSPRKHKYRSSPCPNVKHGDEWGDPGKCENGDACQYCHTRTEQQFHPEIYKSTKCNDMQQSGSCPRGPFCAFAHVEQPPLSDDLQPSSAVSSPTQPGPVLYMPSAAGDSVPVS
Technique: RNA Bind-n-Seq
Molecule type: RNA
Medium: in vitro
Tested at: not given
Setting: RNA with constant flanks, ends assumed
Relative to: input RNA pool
Reading: higher = stronger binding
All sequences stand within: GGGAGUUCUACAGUCCGACGAUC … CAACAGAGGAUUGAGCAUCA
| Strand | bound/input enrichment |
| --- | --- |
| ACUGCCAGGCUGUUUCAGCCAGGAAGGCCAAAAUCAAGAGUGAGAUGUAGAAAGUUGUAAAACCGAAAAAGUGGAGUUGGUGAAUCGGUUGUUCUUUCCUCACAUUUGGAUGAUUGUCAU | 0.265 ratio |
| UCAAGUGGACAUGAAGGAAGGGGUGGGGGGAGGGGCGGGUUUUUUUUUUUUCAAUAUAAGCCGCACAUGGUUUAAAUAUGAAUGACUGAACUUGUGAUCUAGUCCUUGUCUGGUAAUUGU | 5.66 ratio |
| UCAGCUUCGGUGGACUGCUCCUCUGAUUUCUAAGCCUCCAAUUGGGCCUCUUUGAUACAAACCGAAGUCAGGUAUGUGACUUAAAUACUAAAAAUAUUAAUAUUCCCGUUUGAAUUCGAU | 0.361 ratio |
| GUCCAAACACAAUGUGACUGUUGUUUUUUAUACUGGCAUCGAGCUGUCUUCCCAAUUUAUUCCGAUGAUGUAUAUGAAAAUGCUGUUGAUGCAGCCAGAUUACAUUACAUGUUCAGUGCU | 0.126 ratio |
| UGAGUGCACACCCCCCUCUGUGUGUGUGUGUGUGUGUGUGUGUGUAUGUGUGUGUAUGUGCCGGUCUGUAGAUCUCUUAUCCCUUAGUGAAGGUGAAUACCAGAAGUAAACACAGCCUCU | 0.443 ratio |
| UAGAUAAUUCUUUUUAUUUUUUAUUUUUCCUUUCCCUCAAUCCUUUUUUAUUUUUAAAAACCGUUCUUUUGUAAUGUGGUGUUCAAAAUGAAAAUUGAAUACUGGCACUCCAUCUCUUAG | 127 ratio |
| GCAGAUGCAGUGGGGGUAACAGUUGUUCUGAUUACUUGCACCUACCGAGGUCAAGAAUUUAUCCGAGUUGGCUACUAUGUAAAUAAUGAAUACACUGAAACAGAAUUAAGGGAAAACCCA | 0.23 ratio |
| UAAUUUAAAAGAAUUACUAAUUCCCCUACCCCCAUCUGUGCUGAGGACAUUUCCCAGCCCCCGCUGGGGGAAAACAGCAUUUUCUUGAAGUGUGUGGCAUUAUCAAUGGGGAUUCAAAGU | 0.373 ratio |

Block 4
Cell line: normal organoid sample H
Technique: CellTiter-Glo
Host: human
Tested at: 1 µM
Time: 4 days
Relative to: DMSO
| Compound | viability |
| --- | --- |
| CN(C)C(=O)Cn1cc(-c2nc(C3(c4ccc(-c5cnc(N)nc5)cc4)CC3)no2)cn1 | 88.3% and 91% |
| O=C(Nc1cccnn1)N1CCC(=Cc2cccc(Oc3ccc(C(F)(F)F)cn3)c2)CC1 | 130% and 107% |
| O=C(O)[C@@H]1[C@@H](Cn2nnc3ccccc3c2=O)CC[C@H]1C(=O)c1ccc(OCCC2CCOCC2)cc1 | 146% and 91.7% |
| O=C(NCc1ncc(C(F)(F)F)cc1Cl)c1ccc2c(c1)C1(CCS(=O)(=O)CC1)[C@@H](C1CC1)N2S(=O)(=O)c1ccc(F)cc1 | 126% and 99.4% |

Block 5
Cell line: A-375
Tested at: 100 µM
Time: 18 h
| Structure (SMILES) | viability [%] |
| --- | --- |
| N[C@@H](CSCCCO)C(=O)O | 108 |
| C=CC(N)CCC(=O)O (centres unmarked) | 92.7 |
| Cc1cc(/C=C/C#N)cc(C)c1Nc1ccnc(Nc2ccc(C#N)cc2)n1 | 15.3 |

Other studies, line by line
| Structure (SMILES) | target or system | test | system | setting | scale | quantity | value |
| --- | --- | --- | --- | --- | --- | --- | --- |
| CC[C@@H](C)c1nc2cc(Nc3ccnc4ccc(S(=O)(=O)C(C)C)cc34)ccc2s1.Cl | L929 | caspase activity, Ac-DEVD-pNA absorbance |  | 50 µM, 2 h | higher = more activity | caspase-3 activity | 0.012 a.u. and 0.026 a.u. and 0.0085 a.u. and 0.011 a.u. |
| COc1ccc(-c2c(Nc3ccccn3)[nH]c3c(C4=CCCCC4)c(-c4ccccc4)nn3c2=O)cc1 |  |  | cancer patients, plasma | oral, 150 mg, cycle 0 day -3, single dose |  | AUC(0-inf), geometric mean | 53900 ng·h/mL |

Excerpt of the above (block 1):
| target | remaining activity [%] |
| --- | --- |
| TSSK2 (Homo sapiens, UniProt Q96PF2) | 89 |
| HIPK2 (Homo sapiens, UniProt Q9H2X6) | 97.5 |
| RPS6KA5 (Homo sapiens, UniProt O75582) | 104 |
